# Measured values collected from several papers.
# Protocols differ between the studies behind these lines. “And” joins repeats or separate records; there may be more than shown. ± gives the spread as reported.
# PDGFRA: Platelet-derived growth factor receptor alpha (PDGFRA, Homo sapiens, UniProt P16234)
# UniProt P16234, sequence (whole entry, looked up): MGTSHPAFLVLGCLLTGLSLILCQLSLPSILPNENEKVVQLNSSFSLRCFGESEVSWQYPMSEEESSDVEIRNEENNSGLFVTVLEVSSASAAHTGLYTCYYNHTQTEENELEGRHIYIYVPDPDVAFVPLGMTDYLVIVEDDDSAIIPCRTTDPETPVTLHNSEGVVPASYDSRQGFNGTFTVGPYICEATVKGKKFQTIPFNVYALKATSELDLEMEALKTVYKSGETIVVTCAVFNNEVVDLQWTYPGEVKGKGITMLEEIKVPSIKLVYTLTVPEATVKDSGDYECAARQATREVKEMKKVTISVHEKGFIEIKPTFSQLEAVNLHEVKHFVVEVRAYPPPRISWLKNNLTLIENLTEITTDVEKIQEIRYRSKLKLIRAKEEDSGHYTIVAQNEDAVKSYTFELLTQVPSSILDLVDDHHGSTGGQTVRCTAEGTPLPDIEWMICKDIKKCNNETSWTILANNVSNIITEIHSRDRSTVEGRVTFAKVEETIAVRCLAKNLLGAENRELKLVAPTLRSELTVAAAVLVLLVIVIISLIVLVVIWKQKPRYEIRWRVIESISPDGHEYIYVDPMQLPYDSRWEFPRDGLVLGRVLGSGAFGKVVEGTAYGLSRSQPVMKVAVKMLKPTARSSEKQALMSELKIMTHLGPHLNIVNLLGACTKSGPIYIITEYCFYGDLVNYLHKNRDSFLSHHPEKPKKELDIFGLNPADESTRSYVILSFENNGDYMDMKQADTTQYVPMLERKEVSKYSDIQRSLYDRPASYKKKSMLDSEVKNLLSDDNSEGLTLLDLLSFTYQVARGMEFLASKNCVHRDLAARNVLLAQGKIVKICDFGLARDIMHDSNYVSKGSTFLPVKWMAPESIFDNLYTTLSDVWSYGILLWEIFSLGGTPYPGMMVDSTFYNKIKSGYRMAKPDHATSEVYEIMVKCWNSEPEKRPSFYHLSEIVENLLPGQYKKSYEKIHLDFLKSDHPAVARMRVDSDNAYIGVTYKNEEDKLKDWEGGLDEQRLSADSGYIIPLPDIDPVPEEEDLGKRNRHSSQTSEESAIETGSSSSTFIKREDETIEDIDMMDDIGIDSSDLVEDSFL
# lasR: Transcriptional activator protein LasR (lasR, Pseudomonas aeruginosa, UniProt P25084)
# UniProt P08913, sequence (whole entry, looked up): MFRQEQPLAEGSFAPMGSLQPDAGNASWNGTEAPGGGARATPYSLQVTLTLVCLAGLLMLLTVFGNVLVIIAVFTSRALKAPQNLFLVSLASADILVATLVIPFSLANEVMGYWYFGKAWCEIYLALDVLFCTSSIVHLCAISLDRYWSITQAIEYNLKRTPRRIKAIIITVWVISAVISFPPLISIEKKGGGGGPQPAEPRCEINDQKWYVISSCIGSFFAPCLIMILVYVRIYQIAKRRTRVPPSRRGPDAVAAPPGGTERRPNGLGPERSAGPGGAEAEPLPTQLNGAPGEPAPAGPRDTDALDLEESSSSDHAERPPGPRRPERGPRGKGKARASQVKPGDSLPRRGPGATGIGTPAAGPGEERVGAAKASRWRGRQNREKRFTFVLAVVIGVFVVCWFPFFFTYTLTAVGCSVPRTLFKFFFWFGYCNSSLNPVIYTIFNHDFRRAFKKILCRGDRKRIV
# UniProt Q9H093, sequence (whole entry, looked up): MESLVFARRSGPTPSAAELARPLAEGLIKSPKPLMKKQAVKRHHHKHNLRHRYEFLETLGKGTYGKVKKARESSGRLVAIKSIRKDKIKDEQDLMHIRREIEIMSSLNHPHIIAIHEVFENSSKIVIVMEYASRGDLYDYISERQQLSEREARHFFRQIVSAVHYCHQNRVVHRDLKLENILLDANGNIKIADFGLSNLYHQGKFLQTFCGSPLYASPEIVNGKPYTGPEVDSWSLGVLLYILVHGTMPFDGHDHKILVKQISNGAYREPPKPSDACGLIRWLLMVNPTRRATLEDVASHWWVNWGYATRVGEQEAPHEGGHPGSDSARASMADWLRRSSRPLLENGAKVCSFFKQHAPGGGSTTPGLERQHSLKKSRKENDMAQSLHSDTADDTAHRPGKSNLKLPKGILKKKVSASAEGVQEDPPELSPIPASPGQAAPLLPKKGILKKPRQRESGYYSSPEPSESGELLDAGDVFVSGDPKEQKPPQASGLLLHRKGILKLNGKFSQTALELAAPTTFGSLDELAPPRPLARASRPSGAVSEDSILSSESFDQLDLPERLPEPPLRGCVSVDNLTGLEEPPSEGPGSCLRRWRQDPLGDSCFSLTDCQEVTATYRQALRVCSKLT
# UniProt Q86U44, sequence (whole entry, looked up): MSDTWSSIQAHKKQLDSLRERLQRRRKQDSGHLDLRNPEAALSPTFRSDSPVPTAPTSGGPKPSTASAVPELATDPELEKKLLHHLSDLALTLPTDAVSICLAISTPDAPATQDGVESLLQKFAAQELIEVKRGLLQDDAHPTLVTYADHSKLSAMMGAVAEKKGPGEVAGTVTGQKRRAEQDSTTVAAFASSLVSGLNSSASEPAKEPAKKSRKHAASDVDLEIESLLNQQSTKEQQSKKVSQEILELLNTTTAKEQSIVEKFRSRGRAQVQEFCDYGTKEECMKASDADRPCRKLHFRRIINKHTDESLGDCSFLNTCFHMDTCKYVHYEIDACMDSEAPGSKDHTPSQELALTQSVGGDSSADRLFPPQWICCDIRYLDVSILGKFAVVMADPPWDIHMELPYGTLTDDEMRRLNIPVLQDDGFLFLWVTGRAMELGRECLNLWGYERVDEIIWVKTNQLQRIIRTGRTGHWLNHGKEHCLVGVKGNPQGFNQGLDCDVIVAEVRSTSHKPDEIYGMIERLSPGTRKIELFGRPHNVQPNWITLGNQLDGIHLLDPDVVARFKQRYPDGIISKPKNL
# UniProt P37173, sequence (whole entry, looked up): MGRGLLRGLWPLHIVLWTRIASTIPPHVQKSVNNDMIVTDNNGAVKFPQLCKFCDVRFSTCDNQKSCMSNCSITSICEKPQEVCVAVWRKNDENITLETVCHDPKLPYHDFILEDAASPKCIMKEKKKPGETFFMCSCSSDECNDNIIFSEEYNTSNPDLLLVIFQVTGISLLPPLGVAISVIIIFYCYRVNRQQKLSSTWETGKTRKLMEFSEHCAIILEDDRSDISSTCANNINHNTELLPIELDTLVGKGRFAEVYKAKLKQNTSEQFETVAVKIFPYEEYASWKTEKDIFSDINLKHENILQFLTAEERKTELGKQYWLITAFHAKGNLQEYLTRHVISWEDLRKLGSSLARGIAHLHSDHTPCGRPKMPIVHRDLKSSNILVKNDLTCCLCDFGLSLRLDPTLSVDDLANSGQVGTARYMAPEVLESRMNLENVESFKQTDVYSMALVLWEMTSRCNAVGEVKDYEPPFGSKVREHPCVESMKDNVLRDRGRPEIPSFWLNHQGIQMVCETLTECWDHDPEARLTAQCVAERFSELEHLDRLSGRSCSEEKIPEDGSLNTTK
# UniProt P21802, sequence (whole entry, unmodified, looked up): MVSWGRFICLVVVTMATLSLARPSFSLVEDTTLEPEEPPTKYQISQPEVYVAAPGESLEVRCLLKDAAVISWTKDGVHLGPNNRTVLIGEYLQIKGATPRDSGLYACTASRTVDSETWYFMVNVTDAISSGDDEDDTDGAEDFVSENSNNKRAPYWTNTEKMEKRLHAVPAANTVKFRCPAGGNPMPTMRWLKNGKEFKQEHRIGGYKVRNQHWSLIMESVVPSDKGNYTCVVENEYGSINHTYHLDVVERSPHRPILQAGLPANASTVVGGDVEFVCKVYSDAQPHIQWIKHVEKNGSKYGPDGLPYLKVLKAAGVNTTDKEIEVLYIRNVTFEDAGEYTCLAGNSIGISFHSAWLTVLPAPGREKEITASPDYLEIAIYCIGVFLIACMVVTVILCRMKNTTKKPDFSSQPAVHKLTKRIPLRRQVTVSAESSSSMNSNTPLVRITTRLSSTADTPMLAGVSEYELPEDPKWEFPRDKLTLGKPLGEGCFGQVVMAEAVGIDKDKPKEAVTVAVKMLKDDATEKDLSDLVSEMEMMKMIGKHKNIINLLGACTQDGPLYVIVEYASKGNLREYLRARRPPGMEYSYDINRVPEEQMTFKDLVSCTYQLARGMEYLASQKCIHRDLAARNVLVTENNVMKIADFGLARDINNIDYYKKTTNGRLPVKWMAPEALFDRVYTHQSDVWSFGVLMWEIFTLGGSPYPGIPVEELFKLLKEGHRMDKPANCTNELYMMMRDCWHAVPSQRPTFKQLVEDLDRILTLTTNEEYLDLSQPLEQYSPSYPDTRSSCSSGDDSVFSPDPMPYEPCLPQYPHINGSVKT
# UniProt P48729, sequence (whole entry, looked up): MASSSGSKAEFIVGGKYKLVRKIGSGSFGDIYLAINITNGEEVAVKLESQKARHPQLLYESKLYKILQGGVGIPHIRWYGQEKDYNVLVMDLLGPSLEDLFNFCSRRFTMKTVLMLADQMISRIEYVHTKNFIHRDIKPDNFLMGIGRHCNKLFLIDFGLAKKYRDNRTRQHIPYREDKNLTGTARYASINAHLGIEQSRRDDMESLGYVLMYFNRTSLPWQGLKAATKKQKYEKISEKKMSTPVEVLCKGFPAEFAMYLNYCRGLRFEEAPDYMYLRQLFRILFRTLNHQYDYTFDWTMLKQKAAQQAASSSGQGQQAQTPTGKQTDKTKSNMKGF
# UniProt Q9P289, sequence (whole entry, looked up): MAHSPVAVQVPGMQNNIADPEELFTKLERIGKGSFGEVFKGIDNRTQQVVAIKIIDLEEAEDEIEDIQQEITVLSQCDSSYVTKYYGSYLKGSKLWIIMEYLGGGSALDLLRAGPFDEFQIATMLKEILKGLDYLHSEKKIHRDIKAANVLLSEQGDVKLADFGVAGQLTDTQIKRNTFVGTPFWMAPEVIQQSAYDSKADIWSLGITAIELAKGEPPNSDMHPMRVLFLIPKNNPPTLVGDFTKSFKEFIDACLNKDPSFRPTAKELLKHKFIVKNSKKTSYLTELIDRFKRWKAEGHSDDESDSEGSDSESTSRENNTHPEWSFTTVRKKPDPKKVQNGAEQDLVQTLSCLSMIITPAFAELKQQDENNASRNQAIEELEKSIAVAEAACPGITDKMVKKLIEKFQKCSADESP
Compound,tested on,assay,system,conditions,scale,quantity,result
C[C@H](NCc1ccc(-c2ccc(C(F)(F)F)cc2)cc1)C(N)=O,PDGFRA,"cell-free assay, competition with immobilised ligand",,1 µM,,inhibition,6%
Cc1cc(C(=O)Nc2nc3cccc(C)c3n2[C@H]2CCCCN(C(=O)/C=C/CN(C)C)C2)ccn1,Trypanosoma brucei,"cell growth, Alamar Blue",2T1 overexpressing Tb927.7.6220,,baseline: parental 2T1,EC50 fold shift,0.5 fold and 0.71 fold
CS(C)(=O)=Nc1ccc(-c2ccc(-c3nc4cc(O[C@@H]5CO[C@H]6[C@@H]5OC[C@H]6O)[nH]c4cc3F)cc2)cc1,"SRPK1 (Homo sapiens, UniProt Q96SB4)","enzyme activity, inhibitor",,10 µM,,inhibition,-6%
N[C@H](C(=O)N1CCCC1)C1CCN(c2nccc3c(-c4ncc(Cl)cc4Cl)cccc23)CC1,"STK26 (Homo sapiens, UniProt Q9P289)","kinase activity, inhibitor",,"10 µM, together with: ATP 1 mM",,inhibition,2.7%
CN(/N=C/c1ccccc1C(=O)O)c1nc(-c2ccccc2Cl)cs1,SRM,enzyme activity,,1 µM,,inhibition,8.74%
CN(C)[C@H]1C[C@@]23CC[C@@]4(O2)C(=CC[C@]2(C)[C@@H](c5ccc6ccncc6c5)CC[C@H]24)C=C3[C@@H](O)[C@@H]1O,"CSNK1A1 (Homo sapiens, UniProt P48729)","ATP probe labelling, inhibitor, KiNativ profiling",,1 µM,,inhibition,-0.7%
CC(C)(C)C(=O)OCOP(=O)(OCOC(=O)C(C)(C)C)C1CCCN(O)C1=O (stereo not drawn),UACC-257,,,,,GI50,1190 nM
CC[C@H](C)[C@H](NC(=O)[C@H](CO)NC(=O)[C@H](Cc1ccc(O)cc1)NC(=O)[C@H](Cc1ccc(O)cc1)NC(=O)[C@H](CC(N)=O)NC(=O)CNC(=O)[C@H](CO)NC(=O)[C@H](Cc1ccc(O)cc1)NC(=O)[C@H](CO)NC(=O)[C@H](CO)NC(=O)[C@H](CC(N)=O)NC(=O)COCCOCCNC(=O)CN1CCN(CC(=O)O)CCN(CC(=O)O)CCN(CC(=O)O)CC1)C(=O)N[C@@H](CC(C)C)C(N)=O [copper-64 labelled],,dynamic PET,"tamoxifen-induced PDAC mouse model, metastases","0.4 min, CLDN4-expressing tumours",,maximum metastasis uptake,27.1 %IA/cc
N=C(N)NCCC[C@@H]1NC(=O)[C@H](CCCCNC(=O)CCC(NC(=S)Nc2ccc(CC3CN(CC(=O)O)CCN(CC(=O)O)CCN(CC(=O)O)CCN3CC(=O)O)cc2)C(=O)NCCCC[C@@H]2NC(=O)[C@@H](Cc3ccc(O)cc3)NC(=O)[C@H](CC(=O)O)NC(=O)CNC(=O)[C@H](CCCNC(=N)N)NC2=O)NC(=O)[C@@H](Cc2ccc(O)cc2)NC(=O)[C@H](CC(=O)O)NC(=O)CNC1=O (stereo partly drawn) [scandium-44 labelled],,PET imaging ROI,"female athymic nude mice, U-87 MG xenograft, kidney","intravenous, 4 h, together with: cRGD 50 mg/kg blocking",,tissue uptake,0.21 ± 0.05 %ID/g
CCCCCCCCCC(=O)CC(=O)N[C@H]1CCOC1=O,lasR,"reporter gene, antagonist",Escherichia coli JLD271,"10 µM, pSC11 and pJN105L plasmids, together with: OdDHL 2 nM",,inhibition,-79%
N#Cc1ccc(N2N=C3c4ccc(C(=O)O)cc4CCC3C2C2CCCC2)cc1Cl (stereo not drawn),"N6-adenosine-methyltransferase catalytic subunit, with METTL14 (METTL3, Homo sapiens, UniProt Q86U44)",enzyme activity,,10 µM,,inhibition,0%
Nc1ccc(/C=C/C(=O)N2CCc3c(oc4c(-c5ccc(F)cc5)cc(-c5ccc(C(=O)N6CCC(F)(F)CC6)cn5)cc34)C2)cn1,PDGFRA,"binding, competition with immobilised ligand",,1 µM,,remaining binding,87%
COc1ccccc1-c1n[nH]c2nc(NC3CCN(C(=O)Cc4ccc(F)cc4F)CC3)ncc12,,"bead binding, competition bead pull-down, measured: LINJ.26.2250",Leishmania donovani axenic amastigote extract,10 µM,baseline: vehicle,relative abundance,1.03
O=C(CN1CN(c2ccccc2)C2(CCN(C(=O)c3cnc4[nH]ncc4c3)CC2)C1=O)NCC(F)(F)F,"NUAK2 (Homo sapiens, UniProt Q9H093)",inhibitor,,concentration not given,,inhibition,< 50%
C=C[C@@H]1C[C@]1(NC(=O)[C@@H]1C[C@@H]2CN1C(=O)[C@H](C(C)(C)C)NC(=O)O[C@@H]1C[C@H]1CCCCCc1nc3ccc(OC)cc3nc1O2)C(=O)NS(=O)(=O)C1CC1,"Ribosomal processing cysteine protease Prp (prp, Staphylococcus aureus, UniProt Q2FXS9, N63Q)","enzyme activity, inhibitor",,"10 µM, prp 21.4 nM, together with: FITC peptide substrate 0.5 µM",,inhibition,-8.3 ± 14.2%
CC(=O)NC[C@@H]1[C@@H](O)C[C@H]2[C@H](O)C[C@@H](CO)N12,β-N-acetylglucosaminidase,"enzyme activity, inhibitor, colorimetric",Canavalia ensiformis,"34.2 nM, together with: p-nitrophenyl GlcNAc substrate",,inhibition,70.6% and 73.6%
O=C1NC(=O)c2c1c1cc(F)c[n+]3c1c1c2c2cc(O)ccc2[n]1[Ru-4]312([N]=C=S)[S+]3CC[S+]1CC[S+]2CC3 (stereo not drawn),"FGFR2 (Homo sapiens, UniProt P21802, N549H)",enzyme activity,,"100 nM, human enzyme, together with: 10 µM ATP",baseline: untreated,remaining activity,55%
O=C1CCN1c1cccc(O)c1,"Uncharacterized hydrolase SAUSA300_2518 (Staphylococcus aureus, UniProt Q2FDS6)","enzyme activity, inhibitor",,50 µM,,inhibition,13.7%
C/C(=N\OCCCN1CCCCC1)c1ccc(C(F)(F)F)cc1,"ADRA2A (Homo sapiens, UniProt P08913)","antagonist, IP-One",,10 µM,,inhibition,10.6%
O=C(O)c1ccccc1/C=N/Nc1nc(-c2ccccc2Cl)cs1,"TGFBR2 (Homo sapiens, UniProt P37173)","enzyme activity, inhibitor",,1 µM,,inhibition,-1.73%
CC[C@@H]1C(=O)N(C)c2cnc(Nc3ccc(C(=O)NCCCC[C@H](NC(=O)[C@@H](NC(=O)[C@H](CO)NC(=O)[C@H](Cc4cncn4CCCCCCCCc4ccccc4)NC(=O)[C@H](CC(C)C)NC(=O)[C@@H]4CCCN4C(C)=O)[C@@H](C)CP(=O)(O)O)C(N)=O)cc3OC)nc2N1C1CCCC1,Caco-2,,,"10 µM, 2 h",,recovery A-B,65.2%
O=C(CCCOc1cccc(Br)c1)N[C@H]1CCSC1=O,lasR,"reporter gene, antagonist",Escherichia coli JLD271,"10 µM, pSC11 and pJN105L plasmids, together with: OdDHL 2 nM",,inhibition,-98%
CC(C)[C@H]1NC(=O)C[C@H]2/C=C/CCSSC[C@@H](NC1=O)C(=O)N[C@H](Cc1cccc3ccccc13)C(=O)NCC(=O)O2,"RPS6KA6 (Homo sapiens, UniProt Q9UK32)","enzyme activity, inhibitor",,10 µM,,inhibition,0.8%
COc1ccc(F)cc1S(=O)(=O)Nc1cnc2c(c1)C(=O)NCCO2,GABAA receptor chloride channel,radioligand binding,,10 µM,,inhibition,-7%
O=C(CCc1ccc(C(F)(F)F)cc1)N[C@H]1CCOC1=O,lasR,"reporter gene, antagonist",Pseudomonas aeruginosa PAO-JP2,"100 µM, plasI-LVAgfp reporter, together with: OdDHL 150 nM",,inhibition,21%
O=C1NC2(CC2)COc2ncc(F)cc2[C@H]2COCCN2c2ccn3ncc1c3n2,,,"Sprague-Dawley rat, male, kidneys","oral, 5 mg/kg/day, 4 weeks dosing, end of recovery",,organ-to-brain weight ratio,156 ± 16.1%
C=CC(=O)Nc1cc(-c2nn(C3CCC(N4CCN(C(C)=O)CC4)CC3)c3ncnc(N)c23)ccc1Oc1ccccc1 (stereo not drawn),"ERBB3 (Homo sapiens, UniProt P21860)","inhibitor, KiNativ profiling",biochemical,2 µM,,inhibition,75.9%
